Experimental data from different studies.
Protocols differ between the studies behind these lines. ± gives the spread as reported.

Compound | cell line | assay | test system | conditions | how to read | endpoint | result
C[C@H](NC(=O)CCCCCC1(C)C(=CC=CC=CC2=[N+](CCCS(=O)(=O)[O-])c3ccc(S(=O)(=O)O)cc3C2(C)C)N(CCCS(=O)(=O)O)c2ccc(S(=O)(=O)O)cc21)C(=O)N[C@@H](CC(=O)Nc1ccc(C(F)(F)C(F)(F)C(F)(F)C(F)(F)C(F)(F)C(F)(F)C(F)(F)C(F)(F)F)cc1)C(=O)N[C@@H](Cc1ccccc1)C(N)=O (stereo partly shown) | HeLa | peptide internalisation, flow cytometry |  | 150 nM, 1 h, 4 °C | relative to: 37 °C | cellular uptake | decreased
Oc1cc(O)c2c(c1)O[C@H](c1cc(O)c(O)c(O)c1)[C@H](O)C2 | Caco-2 TC7 |  | PBS | concentration not given, 3 h, pH 5, 37 °C, together with: EGCG | relative to: dose | cellular accumulation | 0.19 ± 0.02%
N=C(N)NCCC[C@@H]1NC(=O)[C@H](Cc2ccc3ccccc3c2)NC(=O)[C@@H](Cc2ccccc2)NC(=O)[C@H](Cc2ccccc2)NC(=O)[C@H](CCC(N)=O)NC(=O)[C@@H](CCCNC(=N)N)NC(=O)[C@H](CCCNC(=N)N)NC(=O)[C@@H](CCCNC(=N)N)NC1=O | HeLa | flow cytometry |  | cytosolic entry | relative to: 1% over 10% FBS | serum effect on uptake | ~25 fold
O=C(NO)c1ccc(Cn2cc(Cn3cnc4ccc(Cl)cc4c3=O)nn2)cc1 | MRC5 | cell growth or viability, MTT |  | 48 h |  | IC50 | 11.9 µM
O=C(c1nc2ccccc2[nH]1)[C@H]1[C@H](c2ccc(F)cc2)[C@H]2CCCN2[C@@]12c1ccccc1-c1nc3ccccc3nc12 | WI-38 lung fibroblasts | cytotoxicity, MTT | medium with 10% FBS | 72 h, dose at 100% viability |  | EC100 | 0.09 ± 0.003 µM
C=C(C[C@H](N)C(=O)O)C(=O)NC1CC1 | MCF7 | necrosis |  | 24 h |  | EC50 | 64.6 µM
O=C(NO)c1ccc(Cn2cc(Cn3cnc4cc(Br)ccc4c3=O)nn2)cc1 | MRC5 | cell growth or viability, MTT |  | 48 h |  | IC50 | 7.18 µM
O=[N+]([O-])c1ccc(-n2nc(-c3cccs3)sc2=NN=C2CCCc3ccccc32)cc1 | Vero and A549 | cytotoxicity |  |  | relative to: CC50 Vero over IC50 A549 | selectivity index | 70.4
O=C(c1nc2ccccc2[nH]1)[C@H]1[C@H](c2ccc(Cl)cc2Cl)[C@H]2CCCN2[C@@]12c1ccccc1-c1nc3ccccc3nc12 | WI-38 lung fibroblasts | cytotoxicity, MTT | medium with 10% FBS | 72 h, dose at 100% viability |  | EC100 | 0.263 ± 0.083 µM
C=C1[C@H](CO)[C@@H](O)C[C@@H]1n1cnc2c(=O)[nH]c(N)nc21 | HepG2-NTCP | viability |  |  |  | CC50 | > 25 µM
Cc1ccc(C=NN=c2sc(-c3cccs3)nn2-c2ccc([N+](=O)[O-])cc2)cc1 | Vero and A549 | cytotoxicity |  |  | relative to: CC50 Vero over IC50 A549 | selectivity index | 95.7
CCCCCCCCc1ccc(CC[C@](N)(CO)COP(=O)(O)O)cc1 | primary human cardiac myocytes |  | supernatant | 100 nM |  | time to phosphate metabolite detection | 3 h
O=[N+]([O-])c1ccc(-n2nc(-c3cccs3)sc2=NN=Cc2cn(-c3ccccc3)nc2-c2ccccc2)cc1 | Vero and A549 | cytotoxicity |  |  | relative to: CC50 Vero over IC50 A549 | selectivity index | 74.6
O=C(c1cc(Cc2n[nH]c(=O)c3ccccc23)ccc1F)N1CCN(C(=O)C2CC2)CC1 | MCF7 | necrosis |  | 24 h |  | EC50 | > 316 µM
CC(=NN=c1sc(-c2cccs2)nn1-c1ccc([N+](=O)[O-])cc1)c1ccccc1 | Vero and HepG2 | cytotoxicity |  |  | relative to: CC50 Vero over IC50 HepG2 | selectivity index | 116
C=C(C[C@H](N)C(=O)O)C(=O)NCc1ccc(F)cc1 | MCF7 | necrosis |  | 24 h |  | EC50 | > 316 µM

Excerpt of the above:
Compound | cell line | assay | test system | conditions | how to read | endpoint | result
N=C(N)NCCC[C@@H]1NC(=O)[C@H](Cc2ccc3ccccc3c2)NC(=O)[C@@H](Cc2ccccc2)NC(=O)[C@H](Cc2ccccc2)NC(=O)[C@H](CCC(N)=O)NC(=O)[C@@H](CCCNC(=N)N)NC(=O)[C@H](CCCNC(=N)N)NC(=O)[C@@H](CCCNC(=N)N)NC1=O | HeLa | flow cytometry |  | cytosolic entry | relative to: 1% over 10% FBS | serum effect on uptake | ~25 fold
O=C(NO)c1ccc(Cn2cc(Cn3cnc4ccc(Cl)cc4c3=O)nn2)cc1 | MRC5 | cell growth or viability, MTT |  | 48 h |  | IC50 | 11.9 µM
